# Assay results pooled from the literature.
# Each line is one published result; not all experiments were run side by side. ± marks the error that the study gave.
# gag-pol reverse transcriptase: Gag-Pol polyprotein, reverse transcriptase (gag-pol, Human immunodeficiency virus 1, UniProt P03366)
# Cytochrome P450 2A13: Cytochrome P450 2A13 (Homo sapiens, UniProt Q16696)
# Sequence of UniProt Q16696 (whole entry, looked up): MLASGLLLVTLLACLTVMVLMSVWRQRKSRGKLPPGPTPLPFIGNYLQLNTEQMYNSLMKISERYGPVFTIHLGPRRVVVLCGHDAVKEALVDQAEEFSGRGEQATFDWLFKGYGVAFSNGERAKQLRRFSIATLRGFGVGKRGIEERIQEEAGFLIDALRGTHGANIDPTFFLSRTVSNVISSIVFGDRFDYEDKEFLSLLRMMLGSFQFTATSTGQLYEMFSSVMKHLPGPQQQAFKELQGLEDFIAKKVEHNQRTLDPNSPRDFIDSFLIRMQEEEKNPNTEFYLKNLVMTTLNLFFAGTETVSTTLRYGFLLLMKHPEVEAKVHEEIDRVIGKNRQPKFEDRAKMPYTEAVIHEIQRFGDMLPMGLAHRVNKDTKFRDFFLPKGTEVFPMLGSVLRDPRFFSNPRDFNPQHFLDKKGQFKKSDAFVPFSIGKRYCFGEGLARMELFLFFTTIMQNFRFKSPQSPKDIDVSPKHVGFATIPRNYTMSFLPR
# Sequence of UniProt Q15393 (whole entry, looked up): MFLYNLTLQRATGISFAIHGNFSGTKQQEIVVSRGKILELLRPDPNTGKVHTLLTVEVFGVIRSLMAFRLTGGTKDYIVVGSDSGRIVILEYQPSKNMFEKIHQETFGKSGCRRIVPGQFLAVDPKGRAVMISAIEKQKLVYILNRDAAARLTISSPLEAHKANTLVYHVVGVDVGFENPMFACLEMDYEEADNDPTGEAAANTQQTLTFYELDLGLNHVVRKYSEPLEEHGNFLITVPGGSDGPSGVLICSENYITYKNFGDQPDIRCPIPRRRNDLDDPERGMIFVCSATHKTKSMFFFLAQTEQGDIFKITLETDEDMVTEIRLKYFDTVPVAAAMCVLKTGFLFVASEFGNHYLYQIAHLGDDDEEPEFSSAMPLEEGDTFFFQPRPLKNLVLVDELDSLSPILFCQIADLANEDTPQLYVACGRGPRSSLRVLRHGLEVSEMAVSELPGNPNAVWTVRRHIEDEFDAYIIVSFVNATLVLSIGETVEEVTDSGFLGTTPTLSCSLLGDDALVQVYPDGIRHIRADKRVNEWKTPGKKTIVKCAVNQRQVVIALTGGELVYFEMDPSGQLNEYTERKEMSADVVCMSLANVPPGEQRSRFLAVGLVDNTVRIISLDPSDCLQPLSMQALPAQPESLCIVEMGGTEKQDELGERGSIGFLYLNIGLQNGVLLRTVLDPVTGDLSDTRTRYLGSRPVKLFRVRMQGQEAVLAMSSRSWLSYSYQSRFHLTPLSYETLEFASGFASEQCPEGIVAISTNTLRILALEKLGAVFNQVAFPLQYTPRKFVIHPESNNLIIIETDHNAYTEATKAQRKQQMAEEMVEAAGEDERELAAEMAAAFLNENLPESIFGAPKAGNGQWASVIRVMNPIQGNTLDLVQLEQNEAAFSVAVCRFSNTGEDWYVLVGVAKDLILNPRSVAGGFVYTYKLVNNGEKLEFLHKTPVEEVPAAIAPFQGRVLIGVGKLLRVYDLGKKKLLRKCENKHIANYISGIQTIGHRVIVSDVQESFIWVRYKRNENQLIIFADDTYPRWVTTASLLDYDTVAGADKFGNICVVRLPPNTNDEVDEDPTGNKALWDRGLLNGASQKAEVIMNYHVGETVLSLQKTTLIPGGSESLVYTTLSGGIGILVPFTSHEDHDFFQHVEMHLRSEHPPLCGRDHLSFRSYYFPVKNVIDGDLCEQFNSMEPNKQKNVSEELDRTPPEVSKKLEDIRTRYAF
# Sequence of UniProt P03313 (whole entry, looked up): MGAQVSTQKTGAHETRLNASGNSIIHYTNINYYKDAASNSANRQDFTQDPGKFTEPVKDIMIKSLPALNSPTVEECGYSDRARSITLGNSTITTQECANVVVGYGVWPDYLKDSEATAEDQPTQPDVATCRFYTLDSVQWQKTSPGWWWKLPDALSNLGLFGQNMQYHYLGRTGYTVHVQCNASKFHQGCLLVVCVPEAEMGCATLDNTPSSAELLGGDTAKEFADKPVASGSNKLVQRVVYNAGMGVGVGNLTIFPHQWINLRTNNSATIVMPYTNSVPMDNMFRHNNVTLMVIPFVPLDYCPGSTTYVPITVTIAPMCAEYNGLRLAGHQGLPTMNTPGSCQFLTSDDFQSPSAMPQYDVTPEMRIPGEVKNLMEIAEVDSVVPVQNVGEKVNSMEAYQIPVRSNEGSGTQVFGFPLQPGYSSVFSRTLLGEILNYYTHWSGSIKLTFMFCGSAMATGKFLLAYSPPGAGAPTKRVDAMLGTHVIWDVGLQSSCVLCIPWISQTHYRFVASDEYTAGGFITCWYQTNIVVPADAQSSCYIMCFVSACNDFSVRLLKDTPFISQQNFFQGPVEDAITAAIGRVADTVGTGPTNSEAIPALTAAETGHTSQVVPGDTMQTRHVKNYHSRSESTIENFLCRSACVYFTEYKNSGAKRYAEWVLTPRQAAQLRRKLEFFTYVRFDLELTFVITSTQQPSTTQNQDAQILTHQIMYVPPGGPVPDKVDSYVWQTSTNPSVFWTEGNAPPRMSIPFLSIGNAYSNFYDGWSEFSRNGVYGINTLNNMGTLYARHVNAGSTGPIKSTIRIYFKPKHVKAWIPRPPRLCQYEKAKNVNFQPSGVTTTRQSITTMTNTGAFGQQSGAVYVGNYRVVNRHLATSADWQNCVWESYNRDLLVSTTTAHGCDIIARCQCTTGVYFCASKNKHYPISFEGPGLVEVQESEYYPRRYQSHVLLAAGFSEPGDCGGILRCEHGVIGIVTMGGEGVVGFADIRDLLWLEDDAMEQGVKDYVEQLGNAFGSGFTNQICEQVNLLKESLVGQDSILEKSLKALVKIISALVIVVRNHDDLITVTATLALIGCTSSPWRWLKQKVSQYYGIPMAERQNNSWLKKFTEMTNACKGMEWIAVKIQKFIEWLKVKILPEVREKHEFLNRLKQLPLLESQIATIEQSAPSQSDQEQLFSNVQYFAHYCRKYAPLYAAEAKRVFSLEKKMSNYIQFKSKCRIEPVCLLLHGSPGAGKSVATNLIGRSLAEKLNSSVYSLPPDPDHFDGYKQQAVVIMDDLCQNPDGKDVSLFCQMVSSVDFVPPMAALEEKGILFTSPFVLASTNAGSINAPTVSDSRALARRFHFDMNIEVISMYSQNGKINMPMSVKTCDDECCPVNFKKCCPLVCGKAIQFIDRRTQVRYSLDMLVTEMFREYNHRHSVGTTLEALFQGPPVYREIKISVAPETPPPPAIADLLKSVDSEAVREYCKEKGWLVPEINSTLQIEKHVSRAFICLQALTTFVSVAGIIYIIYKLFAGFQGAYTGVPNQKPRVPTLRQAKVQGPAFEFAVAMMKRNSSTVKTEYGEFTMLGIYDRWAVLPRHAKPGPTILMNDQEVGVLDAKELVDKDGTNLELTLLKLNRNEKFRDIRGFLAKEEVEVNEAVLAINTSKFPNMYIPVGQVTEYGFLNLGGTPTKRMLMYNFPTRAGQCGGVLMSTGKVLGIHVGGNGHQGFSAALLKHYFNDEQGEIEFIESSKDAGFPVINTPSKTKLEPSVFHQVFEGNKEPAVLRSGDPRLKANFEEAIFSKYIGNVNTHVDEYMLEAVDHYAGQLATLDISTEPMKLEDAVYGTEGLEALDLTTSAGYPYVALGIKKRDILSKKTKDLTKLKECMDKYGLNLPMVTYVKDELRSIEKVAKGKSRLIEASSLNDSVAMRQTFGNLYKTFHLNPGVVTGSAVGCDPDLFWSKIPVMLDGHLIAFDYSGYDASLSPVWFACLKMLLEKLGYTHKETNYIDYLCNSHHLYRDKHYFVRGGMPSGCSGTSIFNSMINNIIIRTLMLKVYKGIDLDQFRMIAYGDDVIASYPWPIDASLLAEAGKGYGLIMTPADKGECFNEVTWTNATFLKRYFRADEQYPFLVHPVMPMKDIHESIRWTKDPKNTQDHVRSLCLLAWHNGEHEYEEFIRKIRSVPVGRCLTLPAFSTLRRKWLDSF
# Sequence of UniProt P33535 (whole entry, looked up): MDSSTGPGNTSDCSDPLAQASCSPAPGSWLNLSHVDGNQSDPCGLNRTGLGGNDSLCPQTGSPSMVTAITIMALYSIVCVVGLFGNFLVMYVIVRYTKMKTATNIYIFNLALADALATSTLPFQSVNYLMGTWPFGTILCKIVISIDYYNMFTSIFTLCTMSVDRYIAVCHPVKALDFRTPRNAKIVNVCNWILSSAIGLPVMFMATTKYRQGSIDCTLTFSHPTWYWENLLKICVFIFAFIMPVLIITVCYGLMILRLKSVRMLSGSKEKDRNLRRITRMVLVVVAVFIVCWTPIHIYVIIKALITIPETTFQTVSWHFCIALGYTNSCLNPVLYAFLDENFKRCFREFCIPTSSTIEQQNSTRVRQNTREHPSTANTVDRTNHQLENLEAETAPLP
# Sequence of UniProt Q99436 (whole entry, looked up): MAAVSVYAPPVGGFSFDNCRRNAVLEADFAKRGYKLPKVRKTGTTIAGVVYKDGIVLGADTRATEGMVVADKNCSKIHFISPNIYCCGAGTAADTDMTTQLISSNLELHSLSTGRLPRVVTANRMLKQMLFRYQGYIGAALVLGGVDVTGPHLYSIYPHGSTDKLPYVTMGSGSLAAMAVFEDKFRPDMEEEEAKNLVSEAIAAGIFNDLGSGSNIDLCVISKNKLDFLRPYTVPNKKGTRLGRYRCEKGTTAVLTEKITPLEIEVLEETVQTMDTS
# Sequence of UniProt P07687 (whole entry, looked up): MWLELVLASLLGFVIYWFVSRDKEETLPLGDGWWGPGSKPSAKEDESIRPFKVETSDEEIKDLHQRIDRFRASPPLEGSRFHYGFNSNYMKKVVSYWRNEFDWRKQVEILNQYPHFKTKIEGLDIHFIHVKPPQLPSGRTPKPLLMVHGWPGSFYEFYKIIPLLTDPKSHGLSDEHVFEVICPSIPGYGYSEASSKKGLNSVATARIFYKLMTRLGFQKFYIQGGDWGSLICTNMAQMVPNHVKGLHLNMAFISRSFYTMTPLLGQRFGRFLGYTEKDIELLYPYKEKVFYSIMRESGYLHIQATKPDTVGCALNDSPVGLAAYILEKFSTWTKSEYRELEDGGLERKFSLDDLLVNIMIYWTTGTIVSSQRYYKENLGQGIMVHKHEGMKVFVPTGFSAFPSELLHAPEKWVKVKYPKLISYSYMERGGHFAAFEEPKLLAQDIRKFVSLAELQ
SMILES,target,assay,system,setting,IC50
CCN1C(=O)SC[C@H]1[C@@]1(O)C[C@H]2C[C@@H](CC[C@H](C)/C=C\C=C\CC/C(C)=C\C(=O)O2)O1,"Actin, alpha skeletal muscle, pyrene-labeled (ACTA1, Oryctolagus cuniculus, UniProt P68135)","actin polymerization, pyrene actin",,,0.283 ± 0.051 µM
O=C1CSC(c2ccc(Cl)cc2)N1c1nc(-c2ccc(S(=O)(=O)N3CCOCC3)cc2)cs1 (centres unmarked),gag-pol reverse transcriptase,,,,0.65 µM
C[C@H]1CN(c2n[nH]c3nc(N[C@H]4CC[C@H](NS(=O)(=O)CCC(F)(F)F)CC4)ncc23)CCO1,"Splicing factor 3B subunit 3 (Homo sapiens, UniProt Q15393)",biochemical,,,≥ 20 µM
CC[C@H](C)[C@H](NC(=O)[C@H](CC(=O)O)NC(=O)[C@H](CCSC)NC(=O)[C@H](CC(=O)O)NC(=O)[C@@H](N)CCCCN)C(=O)N[C@H](C(=O)N[C@H](C(=O)N[C@@H](CCCCN)C(=O)N[C@@H](Cc1ccccc1)C(=O)O)[C@@H](C)O)[C@@H](C)CC,"Uncharacterized protein (Equus caballus, UniProt Q38RB9)","peptide binding, competitor, competitive radioligand binding",purified horse MHC class I,pH 7,0.016 µM
CC(C)CCC[C@@H](C)[C@H]1CC[C@H]2[C@@H]3C[C@@H](n4cncc4CCN)[C@@]4(O)C[C@@H](O)CC[C@]4(C)[C@H]3CC[C@]12C,"Epoxide hydrolase 1 (Ephx1, Rattus norvegicus, UniProt P07687)","enzyme activity, inhibitor",,,> 100 µM
N/C(=N\C(=O)c1nc(Cl)c(N)nc1N)NCc1ccc(Cl)c(Cl)c1,"Genome polyprotein, 3D RNA polymerase (Coxsackievirus B3, UniProt P03313)","RNA polymerase activity, inhibitor, single AMP incorporation",,no Mg2+ preincubation,15 ± 3 µM
O=C1CSC(c2ccc(Br)cc2)N1c1nc(-c2ccc(S(=O)(=O)N3CCOCC3)cc2)cs1 (centres unmarked),gag-pol reverse transcriptase,,,,> 4 µM
O=[N+]([O-])c1ccc2ccc3cccc4ccc1c2c34,Cytochrome P450 2A13,"enzyme activity, inhibitor",,"20 min, pH 7.4",> 100 µM
CCCC[C@@H](NC(=O)[C@@H](N)Cc1ccc(O)cc1)C(=O)NCC(=O)N[C@@H](Cc1ccc(F)cc1)C(=O)N(C)CCC[C@@]1(c2ccc(F)cc2)OCc2cc(C#N)ccc21,"Mu-type opioid receptor (Oprm1, Rattus norvegicus, UniProt P33535)",,,,0.0347 µM
C#Cc1ccc2c(ccc3ccccc32)c1,Cytochrome P450 2A13,"enzyme activity, inhibitor",,"20 min, pH 7.4",> 100 µM
COc1ccc(C[C@H](NC(=O)[C@H](C)NC(=O)CN2CCOCC2)C(=O)N[C@@H](CC2CCC(C(F)(F)F)CC2)C(=O)[C@@]2(C)CO2)cc1 (some centres unmarked),"Proteasome subunit beta type-7 (PSMB7, Homo sapiens, UniProt Q99436)","inhibitor, competitive ABPP",Raji cell lysate,constitutive proteasome β2c,> 10 µM
COc1cc(Nc2ncc(F)c(Nc3ccc4c(n3)NC(=O)C(C)(C)O4)n2)cc(OC)c1OC,"5-hydroxytryptamine receptor 4 (HTR4, Homo sapiens, UniProt Q13639)",,,,> 10 µM
CN1CCN(CCOc2c(Cl)cc(C(=O)N[C@@H](Cc3ccccc3)C(=O)O)c(O)c2Cl)CC1,"Cleavage and polyadenylation specificity factor subunit 3 (CPSF3, Homo sapiens, UniProt Q9UKF6)","pre-mRNA cleavage, inhibitor",HeLa nuclear extract,with: Chimera_4 substrate,6.7 µM
CNC(C)Cc1ccc2n[se]nc2c1 (centres unmarked),"Sodium-dependent dopamine transporter (SLC6A3, Homo sapiens, UniProt Q01959)",,,,9.8 ± 2.2 µM

# For quick reference, copied from above:
SMILES,target,assay,system,setting,IC50
O=[N+]([O-])c1ccc2ccc3cccc4ccc1c2c34,Cytochrome P450 2A13,"enzyme activity, inhibitor",,"20 min, pH 7.4",> 100 µM
CCCC[C@@H](NC(=O)[C@@H](N)Cc1ccc(O)cc1)C(=O)NCC(=O)N[C@@H](Cc1ccc(F)cc1)C(=O)N(C)CCC[C@@]1(c2ccc(F)cc2)OCc2cc(C#N)ccc21,"Mu-type opioid receptor (Oprm1, Rattus norvegicus, UniProt P33535)",,,,0.0347 µM
